Measured values from different studies.
A part holds a random share of what one study measured. Changes are numbered by the printed parent chain.

Series 1
Target: ABI1, truncated, D143A, DHFR fusion (Arabidopsis thaliana, UniProt P49597)
Technique: DHFR PCA, dose-response
Medium: yeast
Setting: Hill fit, mean, not affinity
Added: (+)-ABA, dose series
Direction: lower = more sensitive
Parent: PYL1, truncated, DHFR fusion (Arabidopsis thaliana, UniProt Q8VZS8); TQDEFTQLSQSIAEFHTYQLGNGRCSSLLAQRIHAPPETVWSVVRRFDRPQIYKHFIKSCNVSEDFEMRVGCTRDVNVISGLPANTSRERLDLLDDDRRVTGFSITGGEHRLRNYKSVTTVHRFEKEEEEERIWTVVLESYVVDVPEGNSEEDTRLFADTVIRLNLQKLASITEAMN
Change | ABA EC50 [µM]
E38H | 9.29
T160C | 6.25
L169C | 260
E139R | 632
V70S | 17.6
L93H | 9.01
C72Y | 18.7
P37N | 185
R90A | 43.9
R132L | 2.46
E129P | 2.82
A13M | 3.03
T73K | 5.63
Y18V | 9
I79K | 6.28
S104L | 347
D3V | 4.52
C25K | 198

Series 2
Target: RING finger protein unkempt homolog, zinc fingers 1-6, GST-SBP tag (UNK, Homo sapiens, UniProt Q9C0B0, residues 30-357)
Sequence of UniProt Q9C0B0 (30-357, looked up): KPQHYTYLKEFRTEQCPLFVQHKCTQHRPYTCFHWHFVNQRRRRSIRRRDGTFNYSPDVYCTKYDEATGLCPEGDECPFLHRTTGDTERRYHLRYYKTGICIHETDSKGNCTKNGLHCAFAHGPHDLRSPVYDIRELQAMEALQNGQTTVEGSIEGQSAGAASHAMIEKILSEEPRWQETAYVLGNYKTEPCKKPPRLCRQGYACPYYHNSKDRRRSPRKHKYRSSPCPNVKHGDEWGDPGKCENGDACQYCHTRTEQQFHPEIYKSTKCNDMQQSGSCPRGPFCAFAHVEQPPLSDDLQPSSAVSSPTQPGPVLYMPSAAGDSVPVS
Technique: RNA Bind-n-Seq
Molecule type: RNA
Medium: in vitro
Concentration: not given
Setting: RNA with constant flanks, human-mouse chimeric sites, ends assumed
Relative to: input RNA pool
Direction: higher = stronger binding
Shared flanks, not repeated: GGGAGUUCUACAGUCCGACGAUC … CAACAGAGGAUUGAGCAUCA
Sequence | bound/input enrichment
GCCACCAGAUCCCAGAAACAUGACCCUUGCUGCCUACAAAGAGAAGAUGAAGGAGCUCCCGCUGGUGUCCUUGUUCUGCUCUUGCUUCCUGGCCGAUCCCCUGAAUAAGUCGUCCUACAA | 0.231 ratio
GUUCGACUCUGGGAUCAUGCCACAAUGACAGAAGUGAAAUCUCUGAAUUUUAAUAUGUCUGUUAGCAGCAUGGAGUAUAUUCCUGAGGGAGAGAUUUUGGUUAUUACUUAUGGACGAUCU | 0.365 ratio
UCAUUUUGCUCGGGUUAGAUCGUCAGGUAGGAAAAGCCUAAAGAUUAGGUUGUAAGAAAAACAGAAGCCAUGUUUCGAAGACCUGUGUUACAGGUAUUUCGUCAGUUUGUAAGACAUGAG | 2.75 ratio
CUGUGACCACAAGAUCCUGAAGUUUGAGCAGCUGAAGUUGACUCCCUCUCCUUGCCUGAACCCCCCCCCACUGCCCCCCCAUCCCCCAGUGUCGGCUGAGAUGUUGCCAGCAGACAGUUC | 1.32 ratio
UCUGGUCAUACUCGUGCGUAUGGUGUUUGCUUUGUGGAUACUUCACUGGGCAAGUUUUUCAUCGGCCAGUUUUCGGAUGACCGCCACUGUUCCAGAUUUAGGACGCUAGUGGCUCACUAU | 0.193 ratio
GAUCAUGAACCACCAUCCAGAAAUGAAAUGAGAUUACCCAAGACGAGCAAAACAGCUGCGCUACAGAAAAGUAAACUUAACCUUGCAGAGUUCCUUAAUGAAGAUACAAGUUAAGAGAGC | 0.216 ratio
GCAGGAUCUUCUAAGUACCAGUGGGACAUUAUGAAAUCCCUUGGGCUGUCUGAUGAAGACAUAGUGAAGUUUUCUGAAGCAGAGCACUGGCUUGAUUAUUUCCCACCACUGGCUAUUCAG | 0.142 ratio
AGAAUCUUGGGACUGUUUUACUUAAUUGGUCAUUGAUAGCUUAACAAACAUGGAGAUAAGAUUAGAAAUCUUGACAUCAACAAGUAUUAAGCAGAAAAAACCCUGGCCACGUGUCUCCUG | 0.13 ratio
UCAGAAGAGGUGCUGGGUCACUUUUCAUAUCCAGAUCCUUCACAGUGGACAGAUGAAGAACUGGGAAUCCCUCCUGAUGACGAGGACUGACACUGUAAACUCUCUGGACGAGUAGGAGCA | 0.945 ratio
UGACAAGGGCACUGCAGAGCCAUGCCUUUCCUUGACAUACAGAAAAAGUUCGGCCUUAGCCUGGACCGGCACUUUAUGUUCCUAAGCGCAGAACAGCCCUACAAGAUCGCCGCUCGGUGC | 0.103 ratio
CCAAUUGUGGAGCAGUACUUGAAGACAAAGAAAAAUUCUAAUAAUUUAAUCAUCAAGUACAUUAGCUGCCGGCUGGUGACACUCAUCGUUAUACUGUUAGCGUGUAUCUACCUGGGCUAU | 0.451 ratio

Series 3
Target: CCNB2, cyclin fold, Cln2 fusion (human)
Technique: yeast growth competition, sequencing
Medium: yeast
Setting: weak parent motif
Relative to: not given
Direction: higher = stronger binding
Parent: GMNC docking peptide (human); KNAKRNLSSEFAN; partner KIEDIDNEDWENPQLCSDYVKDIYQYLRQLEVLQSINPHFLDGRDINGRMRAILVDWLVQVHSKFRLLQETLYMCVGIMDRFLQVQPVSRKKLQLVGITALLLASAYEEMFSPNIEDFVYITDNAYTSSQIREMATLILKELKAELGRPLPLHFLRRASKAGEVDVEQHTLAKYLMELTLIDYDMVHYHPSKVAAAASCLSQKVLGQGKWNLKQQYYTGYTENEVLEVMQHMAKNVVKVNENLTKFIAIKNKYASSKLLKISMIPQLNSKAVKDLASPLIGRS
Change | normalised enrichment score
KNAKRNLSSEIAN [F11I] | 0.0589
KNAKRNLSSEFYN [A12Y] | 0.197
KNAKRNLSSETAN [F11T] | 0.348
KNAKRNLSSYFAN [E10Y] | -0.33
KNAKRNLWSEFAN [S8W] | 0.771
KNAKHNLSSEFAN [R5H] | 0.184
KNAKRHLSSEFAN [N6H] | -0.0503
KNAKRNLMSEFAN [S8M] | 1.33
KNAKYNLSSEFAN [R5Y] | 0.741
KNAKTNLSSEFAN [R5T] | 0.336
KNFKRNLSSEFAN [A3F] | 0.284
KNAPRNLSSEFAN [K4P] | 0.258
KNAKRNLSKEFAN [S9K] | 0.318
KNAKRNLKSEFAN [S8K] | 0.336
KNAKRNRSSEFAN [L7R] | 0.305
KDAKRNLSSEFAN [N2D] | 0.403

Series 4
Target: Prothrombin, mature alpha-thrombin (F2, Homo sapiens, UniProt P00734)
Technique: aptamer microarray, sandwich
Molecule type: DNA with 2'F-ANA
Medium: in vitro
Concentration: 200 nM
Setting: whole 15-mer aptamer, many near background
Added: Cy3 exosite-II aptamer, 400 nM
Direction: higher = stronger binding
Sequence: GGTTGGTGTGGTTGG
Modification | mean fluorescence intensity
2'F-ANA at 1 3 4 8 9 10 12 | 82.2 a.u.
2'F-ANA at 1 2 4 8 13 14 15 | 52.9 a.u.
2'F-ANA at 1 2 3 5 7 9 12 13 15 | 81.9 a.u.
2'F-ANA at 1 2 3 10 12 13 | 92.4 a.u.
2'F-ANA at 1 2 5 7 9 12 13 14 15 | 44.3 a.u.
2'F-ANA at 1 2 3 5 7 12 15 | 121 a.u.
2'F-ANA at 2 5 7 8 13 14 15 | 76 a.u.
2'F-ANA at 3 8 9 11 12 14 | 659 a.u.
2'F-ANA at 2 5 7 11 12 13 | 98.7 a.u.
2'F-ANA at 2 3 6 7 9 10 11 12 13 15 | 310 a.u.
2'F-ANA at 2 5 6 7 10 12 13 | 51.1 a.u.
2'F-ANA at 1 2 3 4 12 15 | 399 a.u.
2'F-ANA at 3 4 6 7 8 9 12 15 | 879 a.u.
2'F-ANA at 2 5 6 8 9 10 11 15 | 57 a.u.
2'F-ANA at 1 5 7 9 11 12 13 14 15 | 45.7 a.u.
2'F-ANA at 2 4 7 8 11 13 15 | 245 a.u.
2'F-ANA at 1 7 10 13 | 50.1 a.u.
2'F-ANA at 1 4 5 10 12 13 14 15 | 46.8 a.u.
2'F-ANA at 1 2 5 7 8 9 11 12 13 14 | 50.9 a.u.
2'F-ANA at 2 5 8 10 11 13 14 | 43.7 a.u.
2'F-ANA at 3 5 6 8 10 11 12 | 60.2 a.u.
2'F-ANA at 4 5 8 10 13 14 | 77 a.u.
2'F-ANA at 2 5 9 10 12 13 15 | 53.2 a.u.
2'F-ANA at 1 2 7 9 10 11 12 | 61.1 a.u.

Series 5
Target: Histone acetyltransferase KAT6A, both winged helices, GST fusion (KAT6A, Homo sapiens, UniProt Q92794, residues 1-181)
Technique: protein binding microarray
Molecule type: double-stranded DNA, one strand shown
Medium: in vitro
Concentration: not given
Setting: 8-mer, flanks averaged, mean of 2 arrays, mostly near background
Relative to: not given
Direction: higher = stronger binding
Construct (chain): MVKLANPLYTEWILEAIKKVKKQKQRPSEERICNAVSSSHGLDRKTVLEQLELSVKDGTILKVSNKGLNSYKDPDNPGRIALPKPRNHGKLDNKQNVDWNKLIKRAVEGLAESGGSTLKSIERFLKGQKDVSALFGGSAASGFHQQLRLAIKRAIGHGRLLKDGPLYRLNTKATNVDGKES
Sequence | E-score
ACGTGCCT | -0.119
ACCAGCCA | -0.263
AGAATGGA | -0.0794
ATGTTCTA | -0.101
TATGAGAA | -0.0545
CACTCGCG | 0.24
AGTTCGTC | 0.0774
CAATAAAA | -0.106
CAGCGATA | -0.18
CCATGGGG | -0.132
CTAGCCCA | -0.228
CCGAAGCG | 0.225
CACGCTCC | 0.0739
CTAACCAC | -0.0847
ACTACAAA | -0.0787
ATCAATTC | -0.109
AGGTCATG | -0.151
ATACATTG | -0.112
ACTTCAAA | -0.206
CTATGGCC | -0.0489
CACAGGGG | -0.0679
GTTTCATA | 0.0206

Series 6
Target: CRIPT, C-terminal peptide
Technique: DHFR complementation, deep sequencing
Medium: yeast
Setting: single substitutions, model-inferred values
Relative to: wild type
Direction: higher = weaker binding
Parent: ERBIN, PDZ domain 1 (human); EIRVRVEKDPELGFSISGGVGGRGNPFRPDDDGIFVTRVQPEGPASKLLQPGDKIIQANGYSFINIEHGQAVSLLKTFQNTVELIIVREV; partner TKNYKQTSV
Change | binding free energy change [kcal/mol]
Q70P | 0.347
S17T | 0.295
V4W | 0.415
D32F | 0.592
P29I | 0.232
G13S | 1.09
T81G | 0.104
D9N | -0.241
V72M | 1.6
K47G | -0.0339
G13C | 0.72
P51D | 0.448
G43F | 0.903
A45F | 1.36

Some of these lines once more (series 3):
Change | normalised enrichment score
KNAKRNLSSETAN [F11T] | 0.348
KNAKRNLSSYFAN [E10Y] | -0.33
KNAKRNLWSEFAN [S8W] | 0.771
KNAKHNLSSEFAN [R5H] | 0.184
KNAKRHLSSEFAN [N6H] | -0.0503
KNAKRNLMSEFAN [S8M] | 1.33
KNAKYNLSSEFAN [R5Y] | 0.741
KNAKTNLSSEFAN [R5T] | 0.336
KNFKRNLSSEFAN [A3F] | 0.284
KNAPRNLSSEFAN [K4P] | 0.258
KNAKRNLSKEFAN [S9K] | 0.318
KNAKRNLKSEFAN [S8K] | 0.336
